Published values pooled from the literature.
Protocols differ between the studies behind these lines. ± gives the spread as reported. Where no end group is shown, it is not given here.
WWOX WW1 domain: WW domain-containing oxidoreductase, WW1 domain (WWOX, Homo sapiens, UniProt Q9NZC7)
Chain of UniProt Q9NZC7 (whole entry, looked up): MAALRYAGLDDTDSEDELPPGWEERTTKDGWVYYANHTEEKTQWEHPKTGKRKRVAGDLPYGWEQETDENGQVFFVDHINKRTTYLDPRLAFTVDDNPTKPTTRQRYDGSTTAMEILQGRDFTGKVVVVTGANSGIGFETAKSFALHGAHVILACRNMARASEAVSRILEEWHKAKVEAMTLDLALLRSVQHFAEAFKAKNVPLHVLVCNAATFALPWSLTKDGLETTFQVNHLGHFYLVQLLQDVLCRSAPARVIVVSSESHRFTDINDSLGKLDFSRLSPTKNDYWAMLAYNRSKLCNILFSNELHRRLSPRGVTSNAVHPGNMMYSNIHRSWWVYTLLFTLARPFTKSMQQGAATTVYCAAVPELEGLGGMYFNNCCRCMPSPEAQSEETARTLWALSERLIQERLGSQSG
HSPA1A with Hdj2: Heat shock 70 kDa protein 1A, with Hdj2 (HSPA1A, Homo sapiens, UniProt P0DMV8)
Chain of UniProt P0DMV8 (whole entry, looked up): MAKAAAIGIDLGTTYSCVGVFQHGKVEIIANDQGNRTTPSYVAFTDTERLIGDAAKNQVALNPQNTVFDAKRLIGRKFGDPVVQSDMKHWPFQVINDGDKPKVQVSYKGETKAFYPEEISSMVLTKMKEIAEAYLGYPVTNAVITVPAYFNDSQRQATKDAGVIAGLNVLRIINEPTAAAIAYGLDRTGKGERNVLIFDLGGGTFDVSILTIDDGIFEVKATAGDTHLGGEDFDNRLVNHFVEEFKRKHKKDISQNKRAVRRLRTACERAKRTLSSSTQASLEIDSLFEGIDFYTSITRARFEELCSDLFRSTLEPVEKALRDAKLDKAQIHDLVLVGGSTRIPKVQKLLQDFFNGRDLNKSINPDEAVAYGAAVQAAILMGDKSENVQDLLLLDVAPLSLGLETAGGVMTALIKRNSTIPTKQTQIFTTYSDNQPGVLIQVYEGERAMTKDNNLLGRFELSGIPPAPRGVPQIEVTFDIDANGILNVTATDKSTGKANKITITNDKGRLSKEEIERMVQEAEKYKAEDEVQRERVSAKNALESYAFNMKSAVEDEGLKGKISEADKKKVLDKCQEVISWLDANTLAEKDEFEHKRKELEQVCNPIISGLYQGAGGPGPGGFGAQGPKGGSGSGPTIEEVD
MAL12: Alpha-glucosidase MAL12 (MAL12, Saccharomyces cerevisiae S288c, UniProt P53341)
Chain of UniProt P53341 (whole entry, looked up): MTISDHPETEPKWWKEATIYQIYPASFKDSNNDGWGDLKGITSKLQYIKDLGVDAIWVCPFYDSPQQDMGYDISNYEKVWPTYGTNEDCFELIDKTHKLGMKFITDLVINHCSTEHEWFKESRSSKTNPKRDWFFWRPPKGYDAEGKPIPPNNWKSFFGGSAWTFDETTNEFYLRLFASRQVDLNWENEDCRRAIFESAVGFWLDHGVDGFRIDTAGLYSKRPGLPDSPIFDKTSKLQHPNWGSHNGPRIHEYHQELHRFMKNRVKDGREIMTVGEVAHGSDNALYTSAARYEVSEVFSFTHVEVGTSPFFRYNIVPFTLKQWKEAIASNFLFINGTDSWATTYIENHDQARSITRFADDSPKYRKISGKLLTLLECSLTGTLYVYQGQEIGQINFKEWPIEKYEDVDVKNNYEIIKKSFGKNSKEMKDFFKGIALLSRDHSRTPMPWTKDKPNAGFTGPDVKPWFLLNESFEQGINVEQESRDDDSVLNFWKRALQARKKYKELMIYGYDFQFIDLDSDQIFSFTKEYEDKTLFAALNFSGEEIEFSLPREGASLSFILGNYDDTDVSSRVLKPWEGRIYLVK
SCN9A: Sodium channel protein type 9 subunit alpha (SCN9A, Homo sapiens, UniProt Q15858)
Chain of UniProt Q15858 (whole entry, looked up): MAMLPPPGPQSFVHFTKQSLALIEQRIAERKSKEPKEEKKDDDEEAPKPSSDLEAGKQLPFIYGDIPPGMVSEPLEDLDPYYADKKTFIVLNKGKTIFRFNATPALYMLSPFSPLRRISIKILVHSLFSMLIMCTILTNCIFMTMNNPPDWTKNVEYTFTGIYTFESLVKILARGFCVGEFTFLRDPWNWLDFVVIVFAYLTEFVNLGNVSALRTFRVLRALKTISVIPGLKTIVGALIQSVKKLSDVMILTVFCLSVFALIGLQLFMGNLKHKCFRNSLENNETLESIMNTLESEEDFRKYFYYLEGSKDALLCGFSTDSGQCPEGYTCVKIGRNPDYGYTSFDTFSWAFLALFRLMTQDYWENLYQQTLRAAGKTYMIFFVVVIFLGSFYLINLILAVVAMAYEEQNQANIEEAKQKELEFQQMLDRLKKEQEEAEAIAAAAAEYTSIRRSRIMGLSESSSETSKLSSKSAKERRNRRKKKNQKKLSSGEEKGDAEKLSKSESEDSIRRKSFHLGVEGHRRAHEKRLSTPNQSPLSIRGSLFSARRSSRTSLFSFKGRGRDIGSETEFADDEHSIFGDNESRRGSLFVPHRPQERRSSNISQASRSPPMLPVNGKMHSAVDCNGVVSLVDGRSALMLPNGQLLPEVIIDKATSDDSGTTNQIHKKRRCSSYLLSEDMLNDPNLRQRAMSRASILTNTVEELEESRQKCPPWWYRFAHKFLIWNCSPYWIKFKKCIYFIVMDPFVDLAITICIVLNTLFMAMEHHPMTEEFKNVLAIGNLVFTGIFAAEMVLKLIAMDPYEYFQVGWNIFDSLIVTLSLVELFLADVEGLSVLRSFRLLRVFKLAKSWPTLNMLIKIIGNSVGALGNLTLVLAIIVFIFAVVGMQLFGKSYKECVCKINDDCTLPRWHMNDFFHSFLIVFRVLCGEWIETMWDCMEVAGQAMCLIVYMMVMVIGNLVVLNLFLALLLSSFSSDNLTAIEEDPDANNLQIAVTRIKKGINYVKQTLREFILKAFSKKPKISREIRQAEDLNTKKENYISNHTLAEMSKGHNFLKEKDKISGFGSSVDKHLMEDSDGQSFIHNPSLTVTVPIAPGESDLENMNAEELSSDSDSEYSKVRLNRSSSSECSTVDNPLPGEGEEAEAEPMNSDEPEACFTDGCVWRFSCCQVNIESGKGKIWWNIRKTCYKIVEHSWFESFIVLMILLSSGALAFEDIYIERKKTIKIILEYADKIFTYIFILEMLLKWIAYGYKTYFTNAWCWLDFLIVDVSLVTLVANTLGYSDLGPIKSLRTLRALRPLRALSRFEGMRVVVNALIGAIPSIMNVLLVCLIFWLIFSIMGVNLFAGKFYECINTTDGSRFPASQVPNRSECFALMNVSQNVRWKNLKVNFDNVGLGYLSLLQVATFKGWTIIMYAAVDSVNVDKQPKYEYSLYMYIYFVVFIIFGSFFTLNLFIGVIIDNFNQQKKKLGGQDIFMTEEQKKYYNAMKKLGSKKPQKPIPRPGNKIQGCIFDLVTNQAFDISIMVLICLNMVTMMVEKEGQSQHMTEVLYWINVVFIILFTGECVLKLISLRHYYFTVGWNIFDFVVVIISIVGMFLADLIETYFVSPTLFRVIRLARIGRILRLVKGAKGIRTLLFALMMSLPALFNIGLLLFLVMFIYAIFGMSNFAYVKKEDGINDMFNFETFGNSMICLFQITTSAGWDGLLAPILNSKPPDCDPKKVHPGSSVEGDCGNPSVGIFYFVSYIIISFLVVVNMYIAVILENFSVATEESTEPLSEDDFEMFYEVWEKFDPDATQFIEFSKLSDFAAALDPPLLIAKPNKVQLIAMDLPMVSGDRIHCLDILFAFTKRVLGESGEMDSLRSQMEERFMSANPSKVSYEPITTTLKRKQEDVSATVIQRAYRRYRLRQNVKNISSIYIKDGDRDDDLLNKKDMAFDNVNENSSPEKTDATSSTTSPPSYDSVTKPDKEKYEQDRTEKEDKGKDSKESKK
B1: disulfide; chain GLIHQYCQGYWRHVPPSPREAPGAPRSPEPDQKKPRNRRHHPPDT (disulfide (positions not given here))
Chain of UniProt P69905 (whole entry, looked up): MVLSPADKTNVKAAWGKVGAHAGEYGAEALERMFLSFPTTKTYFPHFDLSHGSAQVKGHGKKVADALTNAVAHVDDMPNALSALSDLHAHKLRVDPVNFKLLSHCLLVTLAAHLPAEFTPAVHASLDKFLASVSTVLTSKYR
Chain of UniProt P07148 (whole entry, looked up): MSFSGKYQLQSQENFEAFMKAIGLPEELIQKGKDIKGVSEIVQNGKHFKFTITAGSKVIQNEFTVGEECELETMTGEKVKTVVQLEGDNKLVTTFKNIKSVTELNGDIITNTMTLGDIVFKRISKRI
Chain of UniProt P33033 (whole entry, looked up): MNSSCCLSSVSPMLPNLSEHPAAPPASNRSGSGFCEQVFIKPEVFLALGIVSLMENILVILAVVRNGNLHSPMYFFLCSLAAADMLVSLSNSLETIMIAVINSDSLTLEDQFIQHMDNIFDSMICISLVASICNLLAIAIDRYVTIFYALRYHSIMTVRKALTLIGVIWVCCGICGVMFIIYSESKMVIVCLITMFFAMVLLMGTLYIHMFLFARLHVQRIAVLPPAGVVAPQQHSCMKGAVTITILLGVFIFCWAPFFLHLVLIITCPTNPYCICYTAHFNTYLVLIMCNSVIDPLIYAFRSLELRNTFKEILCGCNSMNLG
Chain of UniProt Q02083 (whole entry, looked up): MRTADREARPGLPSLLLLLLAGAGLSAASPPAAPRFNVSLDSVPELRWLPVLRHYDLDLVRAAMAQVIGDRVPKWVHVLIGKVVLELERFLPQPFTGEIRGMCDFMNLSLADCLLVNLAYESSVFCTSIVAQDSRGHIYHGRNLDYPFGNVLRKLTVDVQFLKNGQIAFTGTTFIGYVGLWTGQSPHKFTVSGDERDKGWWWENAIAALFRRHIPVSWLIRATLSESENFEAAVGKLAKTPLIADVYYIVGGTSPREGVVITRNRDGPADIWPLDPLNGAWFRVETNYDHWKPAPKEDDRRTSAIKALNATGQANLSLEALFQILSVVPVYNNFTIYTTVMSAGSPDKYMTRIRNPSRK
Chain of UniProt P30519 (whole entry, looked up): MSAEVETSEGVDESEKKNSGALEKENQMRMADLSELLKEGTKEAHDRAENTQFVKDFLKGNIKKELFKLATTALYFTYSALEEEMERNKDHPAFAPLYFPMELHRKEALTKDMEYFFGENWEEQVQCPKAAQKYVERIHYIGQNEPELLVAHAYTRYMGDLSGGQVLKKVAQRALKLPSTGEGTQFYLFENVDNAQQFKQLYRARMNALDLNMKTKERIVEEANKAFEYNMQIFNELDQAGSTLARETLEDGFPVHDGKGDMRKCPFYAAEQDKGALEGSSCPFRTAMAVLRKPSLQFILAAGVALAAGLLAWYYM

`CC(C)C[C@H](NC(=O)[C@H](C)NC(=O)[C@@H](N)[C@@H](C)O)C(=O)N1CCC[C@H]1C(=O)N1CCC[C@H]1C(=O)N1CCC[C@H]1C(=O)N1CCC[C@H]1C(=O)N[C@@H](Cc1ccc(O)cc1)C(=O)N[C@@H](CCCNC(=N)N)C(=O)N[C@@H](Cc1c[nH]cn1)C(=O)N[C@@H](CCCNC(=N)N)C(=O)N[C@@H](CC(N)=O)C(=O)O` — result for “binding free energy ΔG”: -5.4 ± 0.11 kcal/mol (WWOX WW1 domain; binding to WW1 domain, isothermal titration calorimetry; pH 7.0, 25 °C).
With `CC1=CC(=O)c2ccccc2C1=O` the induction was 8 (Heme oxygenase 2 (HMOX2, Homo sapiens, UniProt P30519); enzyme activity, activator; 25 µM).
For `CC(C)C[C@H](NC(=O)[C@@H](NC(=O)[C@@H](N)[C@@H](C)O)C(C)C)C(=O)N1CCC[C@H]1C(=O)N1CCC[C@H]1C(=O)N1CCC[C@H]1C(=O)N1CCC[C@H]1C(=O)N[C@@H](Cc1ccc(O)cc1)C(=O)N[C@@H](CCCNC(=N)N)C(=O)N[C@@H](Cc1c[nH]cn1)C(=O)N[C@@H](C)C(=O)N[C@@H](CC(N)=O)C(=O)O`, “binding enthalpy ΔH” read -4.78 ± 0.26 kcal/mol (WWOX WW1 domain; binding to WW1 domain, isothermal titration calorimetry; concentration not given, pH 7.0, 25 °C).
`CC1=C(C(=O)OCc2ccccc2)C(c2ccc(-c3ccccc3C)cc2)NC(=S)N1Cc1ccc(-c2nnn[nH]2)cc1` (stereo not drawn): “fold change in activity” -3.7 fold (HSPA1A with Hdj2; ATPase activity, inhibitor; 100 µM, Hsp40-stimulated activity, together with: Hdj2 Hsp70:Hsp40 1:0.5; baseline: DMSO, negative means inhibition).
`Clc1cccc(Nc2nnc(-c3ccccc3)c3ccccc23)c1` — result for IC50: “inactive” (cGMP-dependent 3',5'-cyclic phosphodiesterase (PDE2A, Homo sapiens, UniProt O00408); cAMP hydrolysis, inhibitor, fluorescence polarization; recombinant enzyme; up to 100 µM, 30 min preincubation, 30 °C, together with: fluorescein-cAMP 25 nM).
The inhibition of `COc1ccc(-c2cc(=O)c3c(O)cc(OC)cc3o2)cc1` is reported as 15.7% (MAL12; enzyme activity, inhibitor, absorbance; 100 µM).
`O=c1c(O)c(-c2cc(O)c(O)c(O)c2)oc2cc(O)cc(O)c12` gave a V1/2 shift of -8 ± 5.7 mV (Kcnh1 (Mus musculus, UniProt Q60603); inside-out patch clamp; Xenopus oocytes; 10 µM).
With `CC[C@]1(O)C[C@H]2CN(CCc3c([nH]c4ccccc34)[C@@](C(=O)OC)(c3cc4c(cc3OC)N(C=O)[C@H]3[C@@](O)(C(=O)OC)[C@H](OC(C)=O)[C@]5(CC)C=CCN6CC[C@]43[C@@H]65)C2)C1` the inhibition was 87.2% (Organic cation/carnitine transporter 2 (SLC22A5, Homo sapiens, UniProt O76082); transporter uptake, inhibitor; 200 µM).
`CC(C)(C)OCc1ccc(C=O)o1` has a peak modification of 6.3% (Hemoglobin subunit alpha, with beta chain (HBA1, Homo sapiens, UniProt P69905); item: haemoglobin A adduct; human normal whole blood; 2000 µM, 24 h, hematocrit 30%).
Under “binding free energy ΔG”, `CC(C)C[C@H](NC(=O)[C@@H](NC(=O)[C@@H](N)[C@@H](C)O)C(C)C)C(=O)N1CCC[C@H]1C(=O)N1CCC[C@H]1C(=O)N1CCC[C@H]1C(=O)N[C@@H](C)C(=O)N[C@@H](Cc1ccc(O)cc1)C(=O)N[C@@H](CCCNC(=N)N)C(=O)N[C@@H](Cc1c[nH]cn1)C(=O)N[C@@H](CCCNC(=N)N)C(=O)N[C@@H](CC(N)=O)C(=O)O` is recorded as -4.84 ± 0.08 kcal/mol (WWOX WW1 domain; binding to WW1 domain, isothermal titration calorimetry; pH 7.0, 25 °C).
For `COCCN(CCOC)C(C)C(=O)Nc1c(C)csc1C(=O)OC` (stereo not drawn), “capacity factor k′” read 14 (SCN9A; cell membrane chromatography; higher = stronger binding).
`CCCCC/C=C\C/C=C\CCCCCCCC(=O)O`: “acyl loading of EcdA-M1” about 30% (Fatty-acyl-AMP ligase ecdI (ecdI, Aspergillus rugulosus, UniProt K0E2F3); substrate; ~40 µM, 30 min, pH 7.0, ambient, together with: holo-EcdA-M1 10 µM, ATP 5 mM).
For `COc1cc2oc(-c3ccc(O)cc3)cc(=O)c2c(O)c1OC`, the inhibition was 45.1% (MAL12; enzyme activity, inhibitor, absorbance; 25 µM).
`CCc1ccc(CCOc2ccc(CC3SC(=O)NC3=O)cc2)nc1` (stereo not drawn) has a remaining fluorescence of under 18% (Fatty acid-binding protein, liver (FABP1, Homo sapiens, UniProt P07148); binding, DAUDA displacement; together with: DAUDA).
For `RCTKLEYDPRCVYDP`, “patients with IgE binding” read 92% (human IgE; peptide microarray; peptide, peanut-allergic patient sera; concentration not given, 16 h, 4 °C).
Under “decay time constant τ2”, `BzATP` is recorded as 14.9 ± 1.1 s (P2X purinoceptor 7 (P2rx7, Rattus norvegicus, UniProt Q64663); ion current, whole-cell patch clamp; HEK293, transfected; together with: after agonist washout, Ca2+ medium).
For `CCCCN1CCN(C(C)C(=O)Nc2c(C)csc2C(=O)OC)CC1` (stereo not drawn), “capacity factor k′” read 163 (SCN9A; cell membrane chromatography; higher = stronger binding).
`O=c1cc(-c2ccccc2)oc2cc(O)ccc12` has an inhibition of 37.1% (MAL12; enzyme activity, inhibitor, absorbance; 250 µM).
`CC(C)C[C@H](NC(=O)[C@@H](NC(=O)[C@@H](N)[C@@H](C)O)C(C)C)C(=O)N[C@@H](C)C(=O)N1CCC[C@H]1C(=O)N1CCC[C@H]1C(=O)N1CCC[C@H]1C(=O)N[C@@H](Cc1ccc(O)cc1)C(=O)N[C@@H](CCCNC(=N)N)C(=O)N[C@@H](Cc1c[nH]cn1)C(=O)N[C@@H](CCCNC(=N)N)C(=O)N[C@@H](CC(N)=O)C(=O)O` — result for “binding free energy ΔG”: -5.19 ± 0.11 kcal/mol (WWOX WW1 domain; binding to WW1 domain, isothermal titration calorimetry; pH 7.0, 25 °C).
For `Cc1ccc(C(=O)Nc2ccc3ccccc3c2)o1`, “effect on acid-evoked current” read “decreased” (Otop1 (Mus musculus, UniProt Q80VM9, E226A); whole-cell patch-clamp; concentration not given, pH 6.0; baseline: wild type).
`CC1=C(C(=O)OCc2ccccc2)C(c2ccc(-c3ccccc3)cc2)NC(=O)N1CCCCCC(=O)O` (stereo not drawn): “fold change in activity” 1.5 fold (HSPA1A with Hdj2; ATPase activity, inhibitor; 100 µM, Hsp40-stimulated activity, together with: Hdj2 Hsp70:Hsp40 1:0.5; baseline: DMSO, negative means inhibition).
With `CC(C)C[C@H](NC(=O)[C@@H](NC(=O)[C@@H](N)[C@@H](C)O)C(C)C)C(=O)N1CCC[C@H]1C(=O)N1CCC[C@H]1C(=O)N1CCC[C@H]1C(=O)N1CCC[C@H]1C(=O)N[C@@H](Cc1ccc(O)cc1)C(=O)N[C@@H](CCCNC(=N)N)C(=O)N[C@@H](Cc1c[nH]cn1)C(=O)N[C@@H](CCCNC(=N)N)C(=O)N[C@@H](CC(N)=O)C(=O)O` the ΔH was -6.21 ± 0.54 kcal/mol (WWOX WW1 domain; binding, ITC; pH 7.0, 25 °C).
With `O=Cc1ccc(COc2ccc(Cl)cc2)o1` the P50 change was 13.2 ± 5.2% (Hemoglobin subunit alpha, with sickle beta chain (HBA1, Homo sapiens, UniProt P69905); oxygen affinity; sickle red cell lysate; 2000 µM; baseline: untreated).
`CCCCCCCCC(=O)N[C@H]1CN(C)C1=O`: IC50 “inactive” (N-acylethanolamine-hydrolyzing acid amidase (NAAA, Homo sapiens, UniProt Q02083); enzyme activity, inhibitor, fluorogenic PAMCA hydrolysis; pH 4.5, together with: 5 µM PAMCA).
`B1`: “sedimentation coefficient, monomer peak” 3.04 S (Neuropilin-2 (NRP2, Homo sapiens, UniProt O60462); sedimentation velocity AUC; 2.5-fold molar excess, pH 7.5, 4 °C, 8 µM b1b2 domain).
`CC(=O)N[C@@H](Cc1cccnc1)C(=O)N[C@H](Cc1ccccc1)C(=O)N[C@@H](CCCNC(=N)N)C(=O)N[C@@H](Cc1ccc2ccccc2c1)C(N)=O`: “agonist and antagonist activity” “inactive” (Melanocortin receptor 3 (Mus musculus, UniProt P33033); receptor activity, agonist, cell-based; up to 100 µM, Schild antagonism analysis).
For `O=C(O)c1ccccc1Nc1cccc(C(F)(F)F)c1`, the inhibition was 57% (Transient receptor potential cation channel subfamily V member 3 (Trpv3, Mus musculus, UniProt Q8K424); ion current, two-electrode voltage clamp; Xenopus oocytes; 100 µM, +100 mV, together with: 2-APB 100 µM).
For `CC(=O)N[C@@H]1[C@@H](O)[C@H](O[C@@H]2O[C@H](CO)[C@@H](O[C@@H]3O[C@H](CO[C@H]4O[C@H](CO[C@H]5O[C@H](CO)[C@@H](O)[C@H](O)[C@@H]5O)[C@@H](O)[C@H](O[C@H]5O[C@H](CO)[C@@H](O)[C@H](O)[C@@H]5O)[C@@H]4O)[C@@H](O)[C@H](O[C@H]4O[C@H](CO)[C@@H](O)[C@H](O)[C@@H]4O)[C@@H]3O)[C@H](O)[C@H]2NC(C)=O)[C@@H](CO)O[C@H]1NC(=O)C[C@H](N)C(=O)O`, the fluorescence was 18900 RFU (NT1 (Nicotiana tabacum, UniProt Q94EW1); glycan binding, glycan array; together with: Alexa 488-labelled lectin 150 µg/mL).
Under IC50, `CSc1ccc(/C=C2/C(C)=C(CC(=O)O)c3cc(F)ccc32)cc1` is recorded as “inactive” (Dual specificity calcium/calmodulin-dependent 3',5'-cyclic nucleotide phosphodiesterase 1B (Homo sapiens, UniProt Q01064); cGMP hydrolysis, inhibitor; up to 200 µM).
`Cn1c(-c2ccc(C(N)=O)cc2F)nnc1C(C)(C)Oc1c(F)cc(Cl)cc1F` gave an AUC(0-tau) median of 7620 ng·h/mL (healthy young Japanese subjects, plasma; oral, 50 mg once daily, day 18, 14 days dosing).
Under “lipid binding stoichiometry”, `CCCCCCCCCCCCCCCC(=O)OC[C@H](COP(=O)(O)OC[C@H](N)C(=O)O)OC(=O)CCCCCNc1ccc([N+](=O)[O-])c2nonc12` is recorded as about 1 lipids per protein (spg-20 (Caenorhabditis elegans, UniProt O44735); native gel NBD fluorescence; concentration not given, 2 h, on ice, NBD-labelled compound).
For `COc1c(-c2ccc(O)cc2)oc2c(OC)c(O)cc(O)c2c1=O`, the inhibition was 96.3% (MAL12; enzyme activity, inhibitor, absorbance; 25 µM).
`COC(=O)c1scc(C)c1NC(=O)C(C)N1CCSCC1` (stereo not drawn): “capacity factor k′” 6.8 (SCN9A; cell membrane chromatography; higher = stronger binding).
`CC/C=C\CCOC(C)=O`: “remaining 1-NPN fluorescence” 65 ± 2.53% (chemosensory protein 3 (Chilo suppressalis, UniProt V9PY40); binding, competitive ligand, fluorescence competitive binding; highest concentration tested, pH 7.4, protein 2 µM, together with: 1-NPN 2 µM; baseline: no ligand).
`COC(=O)c1scc(C)c1NC(=O)C(C)N1CC(C)CC(C)C1` (stereo not drawn): “capacity factor k′” 77 (SCN9A; cell membrane chromatography; higher = stronger binding).
The Kd of `O=C(O)[C@@H]1CCC=N1` is reported as over 3300 µM (putA (Escherichia coli, UniProt P09546); stopped-flow; 20 °C, proline-reduced enzyme).
The inhibition of `COc1cc(-c2cc(=O)c3ccc(O)c(OC)c3o2)cc(O)c1OC` is reported as 98.7% (MAL12; enzyme activity, inhibitor, absorbance; 100 µM).
With `O=C[C@H](O)[C@@H](O)[C@@H](O)[C@H](O)CO` the ΔG was -6 ± 0.3 kcal/mol (PA-I galactophilic lectin (lecA, Pseudomonas aeruginosa, UniProt Q05097); isothermal titration calorimetry; pH 7.5, 25 °C, together with: 25 mM CaCl2).
`CCCCCC(=O)/C=C/C=O` has an IC50 of 43.9 µM (Endoplasmic reticulum chaperone BiP (HSPA5, Homo sapiens, UniProt P11021); ATPase activity, covalent inhibitor; 1 h preincubation, pH 7.4, 37 °C, estimated value, together with: ATP 0.1 mM).
For `Cc1cc2nc3c(=O)[nH]c(=O)nc-3n(C[C@H](O)[C@H](O)[C@H](O)COP(=O)(O)OP(=O)(O)OC[C@H]3O[C@@H](n4cnc5c(N)ncnc54)[C@H](O)[C@@H]3O)c2cc1C`, the cofactor occupancy was over 95% (Cry4 (Columba livia, UniProt A0A386QUR4); UV-visible absorption; co-purified, mainly oxidized).
For `H-MIETITIYKYKKAADHFSMSMGSGSGSYPYDVPDYA-NH2 (C-amide)`, the bound fraction was about 80% (Bcl-2-like protein 1 (BCL2L1, Homo sapiens, UniProt Q07817); binding, radioligand binding; 1 h, room temperature, immobilized Bcl-xL 100 pmol).
With `AMFKNNYPSL` the MFI increase was 298% (H-2 class I histocompatibility antigen, D-B alpha chain, 17 (H2-D1, Mus musculus, UniProt P01899); H2-D binding, flow cytometry; peptide, RMA-S; 10 µg per 100 µL, 3 h).

A few entries again:
For `O=C(O)c1ccccc1Nc1cccc(C(F)(F)F)c1`, the inhibition was 57% (Transient receptor potential cation channel subfamily V member 3 (Trpv3, Mus musculus, UniProt Q8K424); ion current, two-electrode voltage clamp; Xenopus oocytes; 100 µM, +100 mV, together with: 2-APB 100 µM).
`O=c1c(O)c(-c2cc(O)c(O)c(O)c2)oc2cc(O)cc(O)c12` gave a V1/2 shift of -8 ± 5.7 mV (Kcnh1 (Mus musculus, UniProt Q60603); inside-out patch clamp; Xenopus oocytes; 10 µM).
Under “decay time constant τ2”, `BzATP` is recorded as 14.9 ± 1.1 s (P2X purinoceptor 7 (P2rx7, Rattus norvegicus, UniProt Q64663); ion current, whole-cell patch clamp; HEK293, transfected; together with: after agonist washout, Ca2+ medium).
The inhibition of `COc1cc(-c2cc(=O)c3ccc(O)c(OC)c3o2)cc(O)c1OC` is reported as 98.7% (MAL12; enzyme activity, inhibitor, absorbance; 100 µM).
